# Experimental data from different studies.
# Every numbered part comes from another study and shows a few of its results, in no order. Substitutions count along the parent as printed.

# Series 1 — method: RNA Bind-n-Seq; molecule type: RNA; matrix: in vitro; concentration: 200 nM; notes: whole 134-nt RNA, ends assumed; with: 150 mM KCl; relative to: input library; direction: higher = stronger binding
# Target: Fragile X messenger ribonucleoprotein 1, C-terminal low-complexity region (Fmr1, Mus musculus, UniProt P35922)
# Shared flanks, not repeated: GGGAGUUCUACAGUCCGACGAUC … UGGAAUUCUCGGGUGUCAAGG
Oligonucleotide,log2 enrichment
UGGCCCUGGUGGCAUGCGGGGAGGAAGAGCUGGCCUCAUGGAUCGUGGUGGUCCCGGUGGAAUGUUCAGAGGUGGCCGUGGUGGAGACAG,0.0186
ACCAUGCAGGUGGGCAUCUUUGGGAAGUGGGGCAAGGGGGGGAUAGGGAGGGGGGUAACACUUUGGGAACAGGUGGUUCCAGGUCGUUUC,0.498
GCAGGAAGUAAAAACAAAUGCAAAUGCUUCGGAUAGUGGCAGGGGUGGGGGUUGCUAAGGAAAGGGUGGGAUGGGAGUGGGUAAAGAGUU,-0.0989
AAGUCCUGUGCUACACAUCGUAUGUACCGAAUCGGGGUUUGGGGAGGGGUUUGGGGAAAGUAUUAUGUUACGCCGUUCGGAUCUGCACUU,0.838
UCAAGUCCUGUGCUACACAUCGUAUGUACCGAAUCGGGGCCGGCCGGGGCCGGGGAAAGUAUUAUGUUACGCCGUUCGGAUCUGCACUUC,-0.367
UCAAGUCCUGUGCUACACAUCGUAUGUACCGAAUCGGUGGUUUUUGGAAAAAGGAAAGUAUUAUGUUACGCCGUUCGGAUCUGCACUUCC,-0.461
GUCCUGUGCUACACAUCGUAUGUACCGAAUCGGGGAAAAAAAGGGGUUUGGGGAGGGGAAAGUAUUAUGUUACGCCGUUCGGAUCUGCAC,0.501
CUCAAGUCCUGUGCUACACAUCGUAUGUACCGAAUCGGGGUUGGUUGGGGUUGGAAAGUAUUAUGUUACGCCGUUCGGAUCUGCACUUCC,0.277
UGGCCCUGGUGGCAUGCGGGGAGGAUGAGGUGGCCUCAUGGAUCGUGGUGGUCCCGGUGGAAUGUUCAGAGGUGGCCGUGGUGGAGACAG,1.95e-05
UCCCGACAUCUGUGGCCCUGGCACCAAGAAGGUUCAUGUCAUCUUCAACUACAAGGGCAAGAACGUGCUGAUCAACAAGGACAUCCGUUG,-0.307
UGGGAGGUGGAUCUUGUUUAUUUUUUUAGCUCAUUUCCAGGGGUGGGAAUUUUUUUUUAAUAUGUGUCAUGAAUAAAGUUGUUUUUGAAA,-0.0428
AAGUCCUGUGCUACACAUCGUAUGUACCGAAUCGGGGAAAGGGGUGGGGUUUGGGGAAAGUAUUAUGUUACGCCGUUCGGAUCUGCACUU,1.06
AAGUCCUGUGCUACACAUCGUAUGUACCGAAUCGGGGUGGGGAAAAAGGGGAGGGGAAAGUAUUAUGUUACGCCGUUCGGAUCUGCACUU,0.785
CCUCAAGUCCUGUGCUACACAUCGUAUGUACCGAAUCGGAGGAGGUUUUUGGAAAGUAUUAUGUUACGCCGUUCGGAUCUGCACUUCCAG,0.121

# Series 2 — method: aptamer microarray, sandwich; molecule type: DNA with 2'F-ANA; matrix: in vitro; concentration: 200 nM; with: Cy3 exosite-II aptamer, 400 nM; direction: higher = stronger binding; oligonucleotide: GGTTGGTGTGGTTGG
# Target: Prothrombin, mature alpha-thrombin (F2, Homo sapiens, UniProt P00734)
# Notes: whole 15-mer aptamer, many near background
Modification,mean fluorescence intensity [a.u.]
2'F-ANA at 4 5 6 7 8 10 11,130
2'F-ANA at 2 3 5 7 9 11 12 14 15,54.1
2'F-ANA at 1 2 3 4 5 6 7 8 10 11 12 13,51.4
2'F-ANA at 3 4 5 6 10 13 14 15,67.7
2'F-ANA at 10 11 14,106
2'F-ANA at 1 2 3 4 5 8 13 14 15,53.6
2'F-ANA at 2 6 9 10 11 12 13 15,112
2'F-ANA at 2 3 9 11 15,709
2'F-ANA at 1 2 5 7 9 12 13,70.1
2'F-ANA at 2 3 4 8 11 13 14 15,248
2'F-ANA at 1 2 4 5 9 11 12 13 15,60
2'F-ANA at 1 4 6 10 12 13 15,56.9
2'F-ANA at 2 9 11 13 14,126
2'F-ANA at 1 5 7 8 15,65.3
2'F-ANA at 1 3 4 6 9 12 13,207
2'F-ANA at 3 8 9 10,597
2'F-ANA at 1 2 4 6 8 9 10 12,57.6
2'F-ANA at 1 3 4 6 7 11 12 15,282
2'F-ANA at 1 2 3 5 9 15,63.4
2'F-ANA at 1 6 7 8 9 10 11 15,56.1
2'F-ANA at 1 4 6 9 12 13 15,143
2'F-ANA at 4 5 6 7 13 14 15,43.4
2'F-ANA at 1 2 3 4 5 8 9 11 13 15,47.1
2'F-ANA at 1 3 4 5 11 13 14,54.2
2'F-ANA at 1 2 7 8 10 11 13 14 15,53.2

# Series 3 — method: RNA Bind-n-Seq; molecule type: RNA; matrix: in vitro; concentration: 365 nM; relative to: no-protein control; direction: higher = stronger binding
# Target: RNA binding protein fox-1 homolog 2, RRM domain, GST-SBP tag (RBFOX2, Homo sapiens, UniProt O43251-10, residues 100-194)
# Notes: natural RNA segment, single round, ends assumed
# Shared flanks, not repeated: GGGAGUUCUACAGUCCGACGAUC … UGGAAUUCUCGGGUGCCAA
# Construct (chain): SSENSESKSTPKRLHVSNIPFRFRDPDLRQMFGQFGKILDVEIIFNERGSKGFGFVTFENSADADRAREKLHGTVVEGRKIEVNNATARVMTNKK
Oligonucleotide,RBNS enrichment (R)
GUCUUUAUUUUAGGCUGGAUUUCAGAUGUGUUGCUUCUGAAGACACAAUGAAAGAAUGCAAUCUUCCCACCAGCUACAUGACUACUUGUUCUCUGUGAAGUGUACUCUUG,1.2
GUGCCUGUUCCUCCAUCCUGCUGCCCCCCUCCAGGCCUGCCAGGUGGCCCCUGAAGGUUGCUUUAAGGGGAAAGUAUGUUCUCAUGUCUUCACCCCUCCCUAGAUCUCAC,0.453
UAAAGAGACUGGCCAACAGGACCAACCAAGCACCUUACCUCUCCCAUACAAGAUGACCCUCUGAGCUUUUCAUUUAUUCAAGCUCUGUGGUACAGCCUUUUUUUAAAAUA,0.411
CACUGCAUUUUGGUUUCACAAUUCUUCAUCUCCCUUCCCAAGGAAUGGGCAAUCUACUGAACUUCCAGAUCAAUGCUUUGUUGGAAAGUGAUGAAUUUAAGAGAGUUUUA,5.86
CGUUGGGUGUGUUGGAAUUGUUCUCUUCGGCCUUGUUCUGCCUUGUGAUCUUUUCAAUUCAGUGAAUAAACCAGGAAUCCAUUUUUUCACCAACCCACCCUGUAGAUUGU,0.541
CAGCUUUCAGAGCCAGUGAAGGAGCCACGUGAAUGGCCCUAGAACUGUGCCUAGUUCCUGUGGCCAGGAGGUUGGUGACUGAAACAUUCACACAGGGCUCUUUGAUGGAC,0.509
AUCUAACCUGGGUUGAGCCUCCUCUCUGCUCUGCCACCGAAAUAAACGUUGAAUUUGGAGUUUGUAACUCUUGGCUGCUUCCUUUGUCUUUAAUUGCUCCACACUUCUUG,1.32
UGGAAAAGCCAACCCCGUGGCUGCCCGUGAGUAGGGGGUGGGGUUGGGAAUCCUGGAUAGUGUUCUAUCCAUGGAAAGUGGUGGAAUAGGAAUUAAGGGUGUUCCCCCCC,0.395
GAGAUUCAAGUCCCACCCGGCUCUUUUGGAUGAACCGCUGAGAGCCUCAGGACUGUUUUUGGGGGGCUGACUUGUCUUUCUACGUACGUACUUCCAGGCUGCAAGGUUUU,0.879
GUGAUUAACCCUGGCUGUUGAAUCACUCCACUGACCAGUCUCCAGCUUGAGUCGGGGACAUGUUAACUUCGGAAAGAAGCCCCCGUCCCUGCCAUCCCAUAGAUUCUGAA,0.592
AGAAUCAGAUGUAAUAGGAAACAUAGUUUCAGAUUGCUUCUGACAAAGUCUGUGCCACAUUCCUCACAGCAGGUGUGACUCUUUAAGACCAUGAUAGUGGAGUAAGGGAA,0.248
CUGGACUGCAUGGGGAGGCAGCAGAGCGGGGUCCCCUCUGUGCUUCGACUACUGCUCCUGUGGCAGGAGGCUUUGGGUGGCUCACUACUGAACACAUGUGUAUGAUACUA,0.978

# Series 4 — target: CCNA2, cyclin fold, Cln2 fusion (human); method: yeast growth competition, sequencing; matrix: yeast; notes: strong parent motif; relative to: not given; direction: higher = stronger binding
# Starting sequence: MICAL3 docking peptide (human); LQLRRQLSFSEDS; partner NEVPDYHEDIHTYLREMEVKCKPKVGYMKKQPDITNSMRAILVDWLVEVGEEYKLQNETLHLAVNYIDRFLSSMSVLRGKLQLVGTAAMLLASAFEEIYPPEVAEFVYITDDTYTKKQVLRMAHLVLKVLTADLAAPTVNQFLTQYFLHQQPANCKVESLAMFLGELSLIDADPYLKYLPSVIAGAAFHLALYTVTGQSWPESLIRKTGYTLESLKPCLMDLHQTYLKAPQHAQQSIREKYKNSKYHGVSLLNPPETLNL
Change,normalised enrichment score
LQRRRQLSFSEDS [L3R],3.47
LQLRRQLSYSEDS [F9Y],2.33
LQLRRQNSFSEDS [L7N],-0.107
LQLRGQLSFSEDS [R5G],0.22
LQLRRQLYFSEDS [S8Y],2
LQLRRQLSFSEES [D12E],3.8
LQLRRQFSFSEDS [L7F],-0.215
LSLRRQLSFSEDS [Q2S],3.89
LQLRRQRSFSEDS [L7R],0.0178
LQLRRWLSFSEDS [Q6W],1.21
LWLRRQLSFSEDS [Q2W],2.13
LQLRPQLSFSEDS [R5P],-0.214
LQFRRQLSFSEDS [L3F],4.74
LQLRRQPSFSEDS [L7P],-0.516
LQLRMQLSFSEDS [R5M],0.402
LQLLRQLSFSEDS [R4L],0.283
LHLRRQLSFSEDS [Q2H],3.71
LQLRRQLSGSEDS [F9G],0.0624
LQLRRKLSFSEDS [Q6K],4.73
LQLRIQLSFSEDS [R5I],0.558
LQLRRQLSFSLDS [E11L],3.15
LQLRCQLSFSEDS [R5C],0.537
LQLRRQLSFHEDS [S10H],2.69
LQLRRQLSFSYDS [E11Y],2.38

# For quick reference, copied from above (series 4):
Change,normalised enrichment score
LQLRRQLSGSEDS [F9G],0.0624
LQLRRQLSFSLDS [E11L],3.15
LQLRRQFSFSEDS [L7F],-0.215
LQLRRQLYFSEDS [S8Y],2
LQLRRQLSYSEDS [F9Y],2.33
LQLRGQLSFSEDS [R5G],0.22
LQLRRQPSFSEDS [L7P],-0.516
LQLRMQLSFSEDS [R5M],0.402
LQLRRQLSFHEDS [S10H],2.69
